Measurements collected from several papers.
Protocols differ between the studies behind these lines. “And” joins repeats or separate records; there may be more than shown. ± gives the spread as reported.
Genome polyprotein NS3 helicase domain: Genome polyprotein, NS3 helicase domain (Hepatitis C virus genotype 1b, UniProt Q9WMX2)
WD repeat-containing protein 91 WD40 domain, residues 392–747: WD repeat-containing protein 91, WD40 domain, residues 392–747 (Homo sapiens, UniProt A4D1P6)
UniProt A4D1P6, sequence (whole entry, looked up): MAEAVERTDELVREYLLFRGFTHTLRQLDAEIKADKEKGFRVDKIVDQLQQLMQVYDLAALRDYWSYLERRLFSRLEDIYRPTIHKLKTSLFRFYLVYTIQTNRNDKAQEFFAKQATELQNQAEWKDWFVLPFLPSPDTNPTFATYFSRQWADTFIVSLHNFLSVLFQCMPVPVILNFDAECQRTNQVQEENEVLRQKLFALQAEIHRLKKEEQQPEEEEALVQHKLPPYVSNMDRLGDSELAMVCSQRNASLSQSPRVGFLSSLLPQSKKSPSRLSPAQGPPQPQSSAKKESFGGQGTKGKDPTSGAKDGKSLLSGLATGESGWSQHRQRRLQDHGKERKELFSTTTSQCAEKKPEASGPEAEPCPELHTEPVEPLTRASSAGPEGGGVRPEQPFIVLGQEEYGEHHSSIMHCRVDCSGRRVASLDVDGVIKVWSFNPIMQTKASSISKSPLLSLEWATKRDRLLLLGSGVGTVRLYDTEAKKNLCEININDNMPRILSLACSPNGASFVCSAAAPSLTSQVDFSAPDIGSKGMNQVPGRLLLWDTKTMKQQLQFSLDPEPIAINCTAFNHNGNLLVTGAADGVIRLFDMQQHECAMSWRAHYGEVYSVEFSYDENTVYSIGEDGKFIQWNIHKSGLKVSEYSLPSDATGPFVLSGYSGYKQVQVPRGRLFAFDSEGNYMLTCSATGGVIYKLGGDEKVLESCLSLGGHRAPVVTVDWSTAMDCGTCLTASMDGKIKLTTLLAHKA
ESR1: Estrogen receptor (ESR1, Homo sapiens, UniProt P03372)
UniProt P03372, sequence (whole entry, looked up): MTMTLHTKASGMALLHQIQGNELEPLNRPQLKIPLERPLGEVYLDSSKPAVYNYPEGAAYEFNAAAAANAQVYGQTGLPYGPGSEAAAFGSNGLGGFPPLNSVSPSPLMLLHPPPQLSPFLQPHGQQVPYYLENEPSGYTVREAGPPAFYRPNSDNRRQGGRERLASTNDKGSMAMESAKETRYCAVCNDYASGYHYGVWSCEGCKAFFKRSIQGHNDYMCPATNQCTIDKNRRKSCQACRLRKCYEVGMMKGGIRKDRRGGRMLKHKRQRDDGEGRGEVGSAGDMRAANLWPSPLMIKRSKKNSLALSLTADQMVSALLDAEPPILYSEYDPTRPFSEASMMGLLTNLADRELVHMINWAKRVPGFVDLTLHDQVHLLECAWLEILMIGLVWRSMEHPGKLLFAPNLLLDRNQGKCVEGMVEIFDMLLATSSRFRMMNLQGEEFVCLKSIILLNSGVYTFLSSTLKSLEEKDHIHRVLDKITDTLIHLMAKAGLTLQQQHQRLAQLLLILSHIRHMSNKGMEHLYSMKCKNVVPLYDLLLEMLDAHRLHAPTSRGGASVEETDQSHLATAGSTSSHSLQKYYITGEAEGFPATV
UniProt Q64663, sequence (whole entry, unmodified, looked up): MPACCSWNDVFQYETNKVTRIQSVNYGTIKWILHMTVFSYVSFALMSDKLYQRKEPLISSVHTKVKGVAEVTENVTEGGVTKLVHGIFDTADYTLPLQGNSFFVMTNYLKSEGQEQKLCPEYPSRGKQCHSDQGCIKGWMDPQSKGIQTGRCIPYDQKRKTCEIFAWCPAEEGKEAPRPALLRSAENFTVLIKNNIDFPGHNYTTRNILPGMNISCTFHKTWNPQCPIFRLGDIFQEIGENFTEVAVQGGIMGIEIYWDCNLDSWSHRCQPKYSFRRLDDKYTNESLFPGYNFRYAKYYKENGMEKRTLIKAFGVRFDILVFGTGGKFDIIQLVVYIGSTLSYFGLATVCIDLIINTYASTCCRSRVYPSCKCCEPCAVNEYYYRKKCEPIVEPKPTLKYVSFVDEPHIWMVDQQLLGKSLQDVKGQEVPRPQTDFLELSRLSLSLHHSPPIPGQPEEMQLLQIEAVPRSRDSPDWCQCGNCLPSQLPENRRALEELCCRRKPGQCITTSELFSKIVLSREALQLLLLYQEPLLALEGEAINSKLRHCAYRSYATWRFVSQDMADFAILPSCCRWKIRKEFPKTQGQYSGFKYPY

Nc1ncnc2c1ncn2[C@@H]1O[C@H](COP(=O)(O)OP(=O)(O)OP(=O)(O)O)[C@@H](O)[C@H]1O  kcat (Hexokinase-3 (HK3, Homo sapiens, UniProt P52790, D264A/R265A); substrate; mutant D264A/R265A, together with: glucose 0.5 mM): 46 ± 24 s⁻¹
COc1cc2nccc(Oc3ccc(NC(=O)c4cc5c(n(-c6ccccc6)c4=O)CCCC5=O)nc3)c2cc1OC  plasma inhibitory activity (Tyrosine-protein kinase Mer (MERTK, Homo sapiens, UniProt Q12866); inhibitor; human patients; 10 mg daily, monotherapy): 80 to 100%
CC1CCCN(C(=O)c2cc3ncccn3n2)C1 (centres unmarked)  log fold enrichment (Transducin-like enhancer protein 4 (TLE4, Homo sapiens, UniProt Q04727); binding, affinity selection mass spectrometry; baseline: other proteins in batch): 0.0609
N[C@@H](Cc1c[nH]c2ccccc12)C(=O)O  product formation (N-alpha-acetyltransferase 80 (NAA80, Homo sapiens, UniProt Q93015); substrate, DTNB; 2 mM, 30 min, 37 °C, together with: acetyl-CoA 500 µM): 1.05 µM
C[C@]12CC[C@@H]3c4ccc(O)cc4C[C@@H](CCCCCCCCC[S+]([O-])CCCC(F)(F)C(F)(F)F)[C@H]3[C@@H]1CC[C@@H]2O (some centres unmarked)  inhibition (Genome polyprotein NS3 helicase domain; DNA binding, inhibitor; hepatitis C virus; 100 µM, together with: Cy5-dT15 DNA): 0%
N#CC1CCN(C(=O)c2ccc(NS(=O)(=O)c3ccc4c(c3)OCCO4)cc2)CC1  binding (WD repeat-containing protein 91 WD40 domain, residues 392–747; SPR; 45 µM): 0% and -11%
CN(C)CC[C@@H](c1ccc(Br)cc1)c1ccccn1  inhibition (Genome polyprotein NS3 helicase domain; DNA binding, inhibitor; hepatitis C virus; 100 µM, together with: Cy5-dT15 DNA): 0%
CCCCCCc1ccc([C@H]2CC[C@H]([N+](C)(C)CCC)CC2)cc1.[I-]  Ki/Km ratio (Sphingosine kinase 1 (SPHK1, Homo sapiens, UniProt Q9NYA1); inhibitor, radiometric flash-plate; cell lysate; together with: sphingosine 10 µM): 3.5
O=C1NC(=O)c2cc(Nc3ccccc3)c(Nc3ccccc3)cc21  inhibition (Genome polyprotein NS3 helicase domain; DNA binding, inhibitor; hepatitis C virus; 100 µM, together with: Cy5-dT15 DNA): 0%
C[C@@H]1O[C@@H](O[C@H]2[C@H](Oc3cc(O)c(C(=O)CCc4ccc(O)cc4)c(O)c3)O[C@H](CO)[C@@H](O)[C@@H]2O)[C@H](O)[C@H](O)[C@H]1O  selectivity ratio (ESR1; array formation; PRL-HeLa; baseline: EC50 ERβ over EC50 ERα): 0.56
CCN1CCC[C@H]1CNC(=O)c1c(O)c(Cl)cc(Cl)c1OC  log2 fold change (G-protein coupled receptor 61 (GPR61, Homo sapiens, UniProt Q9BZJ8); β-arrestin recruitment, TANGO luminescence, item: GPR61; concentration not given; baseline: basal luminescence): 0.163
N[C@H](Cc1c[nH]c2ccccc12)C(=O)O  delta Tm (Uncharacterized protein (Chromohalobacter israelensis, UniProt Q1QT90); binder, thermal shift): 2.7 °C
N#CC1CCN(C(=O)c2ccc(CSc3cc(Cl)ccc3Cl)cc2)CC1  binding (WD repeat-containing protein 91 WD40 domain, residues 392–747; SPR; 45 µM): 35% and 28%
CC[C@H](C)[C@H](NC(=O)[C@H](CCSC)NC(=O)[C@H](CCSC)NC(=O)[C@H](C)NC(=O)[C@H](C)NC(=O)[C@H](Cc1ccc(O)cc1)NC(=O)[C@H](C)NC(=O)[C@H](CCCCN)NC(=O)CNC(=O)[C@@H](NC(=O)[C@@H](NC(=O)[C@H](CCSC)NC(=O)[C@H](Cc1c[nH]cn1)NC(=O)CN)[C@@H](C)O)C(C)C)C(=O)N[C@@H](CCSC)C(=O)N[C@@H](CCC(=O)O)C(=O)N[C@@H](Cc1ccc(O)cc1)C(=O)N[C@@H](Cc1ccc(O)cc1)C(=O)N[C@@H](CCCNC(=N)N)C(=O)N[C@@H](CCC(N)=O)C(=O)N[C@@H](CO)C(=O)N[C@@H](CCCCN)C(=O)N[C@@H](C)C(=O)N[C@@H](CCCCN)C(=O)N[C@@H](CCCCN)C(=O)N[C@@H](CC(C)C)C(=O)N[C@@H](CCC(N)=O)C(=O)N[C@@H](C)C(=O)N[C@@H](CCSC)C(=O)N[C@@H](CCCNC(=N)N)C(=O)O  ΔS (Calmodulin-1, Ca2+-bound N-lobe (CALM1, Homo sapiens, UniProt P0DP23); binding, isothermal titration calorimetry; pH 7.4, 15 °C, N-lobe, CaV2.1 IQ domain, together with: Ca2+): 23.2 ± 0.4 cal/mol/K
CCN(CC)Cc1cn(Cc2ccc(C(=O)N[C@@H]3CCc4c(C#N)cccc43)cc2)nn1  SPR response (WD repeat-containing protein 91 WD40 domain, residues 392–747; binding, SPR single-concentration screen; 45 µM): 49.2 RU and 51.7 RU
CN1C2CCCC1CC(NC(=O)c1nn(C)c3ccccc13)C2 (centres unmarked)  inhibition (Genome polyprotein NS3 helicase domain; DNA binding, inhibitor; hepatitis C virus; 100 µM, together with: Cy5-dT15 DNA): 0%
Nc1ncnc2c1ncn2[C@@H]1O[C@H](CO[P@](=O)(O)O[P@](=O)(O)O[P@@](=O)(O)S)[C@@H](O)[C@H]1O  ΔH (GUK1 (Homo sapiens, UniProt Q16774, R148A); binding, ITC): -7.35 ± 0.46 kcal/mol
CCN(CC)CCOc1ccc2c(c1)C(=O)c1cc(OCCN(CC)CC)ccc1-2  curve bottom (Acetylcholinesterase (ACHE, Homo sapiens, UniProt P22303); enzyme activity): -7 % inhibition
CCCCCCSC[C@H]1CN(Cc2c[nH]c3c(N)ncnc23)C[C@@H]1O  residence time (Aminodeoxyfutalosine nucleosidase (Helicobacter pylori, UniProt Q9ZMY2); radiolabel chase ultrafiltration; dissociation half-life of complex): 22 min
Nc1ncnc2c1ncn2[C@@H]1O[C@H](COP(=O)(O)OP(=O)(O)OP(=O)(O)O)[C@@H](O)[C@H]1O  normalized current (P2X purinoceptor 7 (P2rx7, Rattus norvegicus, UniProt Q64663, I214A); ion current, agonist, two-electrode voltage clamp; Xenopus laevis oocytes; 900 µM; baseline: highest concentration response): 0.975 and 0.994 and 0.979
O=c1nc(SCc2cc(F)cc(C(F)(F)F)c2)nc(SCc2ccc3nc(Cl)ccc3c2)[nH]1  ATP hydrolysis rate (DNA topoisomerase 2-alpha (TOP2A, Homo sapiens, UniProt P11388); ATPase activity; 7.8 µM, together with: ATP 0.75 mM): 0.29 µM/min and 2.83 µM/min
CC[C@H](C)[C@H](NC(=O)[C@H](CCCCN)NC(=O)CNC(=O)[C@@H](NC(=O)[C@@H](NC(=O)[C@H](CCSC)NC(=O)[C@H](Cc1c[nH]cn1)NC(=O)CN)[C@@H](C)O)C(C)C)C(=O)N[C@@H](Cc1ccc(O)cc1)C(=O)N[C@@H](C)C(=O)N[C@@H](C)C(=O)N[C@@H](CCSC)C(=O)N[C@@H](CCSC)C(=O)N[C@H](C(=O)N[C@@H](CCSC)C(=O)N[C@@H](CCC(=O)O)C(=O)N[C@@H](Cc1ccc(O)cc1)C(=O)N[C@@H](C)C(=O)N[C@@H](CCCNC(=N)N)C(=O)N[C@@H](CCC(N)=O)C(=O)N[C@@H](CO)C(=O)N[C@@H](CCCCN)C(=O)N[C@@H](C)C(=O)N[C@@H](CCCCN)C(=O)N[C@@H](CCCCN)C(=O)N[C@@H](CC(C)C)C(=O)N[C@@H](CCC(N)=O)C(=O)N[C@@H](C)C(=O)N[C@@H](CCSC)C(=O)N[C@@H](CCCNC(=N)N)C(=O)O)[C@@H](C)CC  ΔS (Calmodulin-1, Ca2+-bound C-lobe (CALM1, Homo sapiens, UniProt P0DP23); binding, isothermal titration calorimetry; pH 7.4, 15 °C, C-lobe, CaV2.1 IQ domain, together with: Ca2+): 25.4 ± 3.7 cal/mol/K
O=c1c(O)c(-c2cc(O)c(O)c(O)c2)oc2cc(O)cc(O)c12  inhibition (Genome polyprotein NS3 helicase domain; DNA binding, inhibitor; hepatitis C virus; 100 µM, together with: Cy5-dT15 DNA): 8%
O=C(/C=C/c1ccccc1)c1ccccc1  selectivity ratio (ESR1; array formation; PRL-HeLa; baseline: EC50 ERβ over EC50 ERα): 0.751
Nc1ncnc2c1ncn2[C@@H]1O[C@H](COP(=O)(O)CP(=O)(O)OP(=O)(O)O)[C@@H](O)[C@H]1O  specific binding (P2X purinoceptor 1 (P2RX1, Homo sapiens, UniProt P51575, L218T); saturation binding; HEK293; 13 nM): 978 CCPM and 1000 CCPM
Cn1c(=O)c2[nH]cnc2n(C)c1=O  potentiation (Glutamate receptor 2 (Homo sapiens, UniProt P42262); ion current, positive allosteric modulator, SyncroPatch patch clamp; HEK293; 10 µM): 98%
CCCN1CC(Oc2ccc([C@@H]3c4[nH]c5ccccc5c4C[C@@H](C)N3CC(C)(C)F)cc2)C1  Emax (ESR1; alkaline phosphatase, agonist; Ishikawa; 72 h, estrogen-depleted medium, no estradiol): 0%
O=S(=O)(O)C1CCNCC1  normalised MST signal (Sodium- and chloride-dependent taurine transporter (SLC6A6, Homo sapiens, UniProt P31641, Y138A); binding, microscale thermophoresis; 244 nM, room temperature, together with: 50 nM labelled protein; higher = more binding): -0.0516
O=S(=O)(NC1CCN(c2ncnc3c2nc(-c2ccccc2Cl)n3-c2ccc(C(F)(F)F)nc2)CC1)c1ccccc1F  selectivity ratio (Cannabinoid receptor 1 (CNR1, Homo sapiens, UniProt P21554); binding, [3H]CP55940 displacement; baseline: Ki CB2 over Ki CB1): 100
